Assay results collected from several papers.
Every numbered part comes from another study and shows a few of its results, in no order. Several values in a cell are separate wells, animals, samples, runs or records.
Sequence of UniProt Q9NWZ3 (whole entry, looked up): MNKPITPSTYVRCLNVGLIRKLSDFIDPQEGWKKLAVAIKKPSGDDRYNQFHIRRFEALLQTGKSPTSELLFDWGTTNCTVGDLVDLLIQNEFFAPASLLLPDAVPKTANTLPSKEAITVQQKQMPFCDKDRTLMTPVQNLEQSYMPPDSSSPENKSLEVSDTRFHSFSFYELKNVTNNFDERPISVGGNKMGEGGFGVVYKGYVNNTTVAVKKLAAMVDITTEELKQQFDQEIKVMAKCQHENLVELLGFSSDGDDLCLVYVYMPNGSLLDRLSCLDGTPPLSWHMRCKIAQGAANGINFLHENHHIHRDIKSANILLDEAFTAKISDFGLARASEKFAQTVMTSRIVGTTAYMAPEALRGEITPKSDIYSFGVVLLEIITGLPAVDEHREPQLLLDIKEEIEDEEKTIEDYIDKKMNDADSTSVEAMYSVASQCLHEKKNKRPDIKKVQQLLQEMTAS
Sequence of UniProt P28222 (whole entry, looked up): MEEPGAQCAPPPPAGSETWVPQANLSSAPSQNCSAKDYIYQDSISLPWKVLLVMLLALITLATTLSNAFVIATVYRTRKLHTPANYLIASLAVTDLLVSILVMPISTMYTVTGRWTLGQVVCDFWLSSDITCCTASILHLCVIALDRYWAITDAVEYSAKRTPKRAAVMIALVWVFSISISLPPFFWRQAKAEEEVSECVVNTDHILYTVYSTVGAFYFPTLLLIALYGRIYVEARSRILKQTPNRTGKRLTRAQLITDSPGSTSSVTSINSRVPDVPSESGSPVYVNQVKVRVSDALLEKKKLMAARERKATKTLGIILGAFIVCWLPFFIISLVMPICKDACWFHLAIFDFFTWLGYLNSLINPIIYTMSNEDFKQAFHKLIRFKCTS
Sequence of UniProt Q16513 (whole entry, looked up): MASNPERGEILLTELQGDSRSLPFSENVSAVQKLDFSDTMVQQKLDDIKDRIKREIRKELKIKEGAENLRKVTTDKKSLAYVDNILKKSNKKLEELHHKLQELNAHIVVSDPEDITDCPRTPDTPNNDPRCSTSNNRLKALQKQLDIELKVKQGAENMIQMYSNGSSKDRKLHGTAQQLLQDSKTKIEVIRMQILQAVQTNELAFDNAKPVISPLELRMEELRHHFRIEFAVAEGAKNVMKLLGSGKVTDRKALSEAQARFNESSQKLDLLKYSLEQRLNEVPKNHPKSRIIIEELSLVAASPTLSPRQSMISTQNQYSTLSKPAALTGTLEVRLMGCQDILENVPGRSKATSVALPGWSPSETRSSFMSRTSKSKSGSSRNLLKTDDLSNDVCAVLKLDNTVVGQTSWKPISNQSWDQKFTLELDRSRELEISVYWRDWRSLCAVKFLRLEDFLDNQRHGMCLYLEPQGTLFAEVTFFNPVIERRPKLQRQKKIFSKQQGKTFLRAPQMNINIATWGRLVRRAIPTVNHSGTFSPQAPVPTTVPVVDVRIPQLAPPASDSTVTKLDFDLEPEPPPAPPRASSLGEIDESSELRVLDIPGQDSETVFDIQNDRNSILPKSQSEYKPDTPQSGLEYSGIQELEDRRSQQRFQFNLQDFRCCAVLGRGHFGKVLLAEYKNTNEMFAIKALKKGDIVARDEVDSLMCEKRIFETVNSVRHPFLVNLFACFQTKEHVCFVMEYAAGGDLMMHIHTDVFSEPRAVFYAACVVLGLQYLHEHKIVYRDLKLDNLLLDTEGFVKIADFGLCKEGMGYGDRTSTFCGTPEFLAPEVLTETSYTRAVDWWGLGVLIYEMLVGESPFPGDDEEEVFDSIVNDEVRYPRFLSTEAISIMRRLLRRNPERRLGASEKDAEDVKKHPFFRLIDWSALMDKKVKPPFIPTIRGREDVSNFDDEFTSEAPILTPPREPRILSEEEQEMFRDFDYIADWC
Sequence of UniProt P9WI81 (whole entry, looked up): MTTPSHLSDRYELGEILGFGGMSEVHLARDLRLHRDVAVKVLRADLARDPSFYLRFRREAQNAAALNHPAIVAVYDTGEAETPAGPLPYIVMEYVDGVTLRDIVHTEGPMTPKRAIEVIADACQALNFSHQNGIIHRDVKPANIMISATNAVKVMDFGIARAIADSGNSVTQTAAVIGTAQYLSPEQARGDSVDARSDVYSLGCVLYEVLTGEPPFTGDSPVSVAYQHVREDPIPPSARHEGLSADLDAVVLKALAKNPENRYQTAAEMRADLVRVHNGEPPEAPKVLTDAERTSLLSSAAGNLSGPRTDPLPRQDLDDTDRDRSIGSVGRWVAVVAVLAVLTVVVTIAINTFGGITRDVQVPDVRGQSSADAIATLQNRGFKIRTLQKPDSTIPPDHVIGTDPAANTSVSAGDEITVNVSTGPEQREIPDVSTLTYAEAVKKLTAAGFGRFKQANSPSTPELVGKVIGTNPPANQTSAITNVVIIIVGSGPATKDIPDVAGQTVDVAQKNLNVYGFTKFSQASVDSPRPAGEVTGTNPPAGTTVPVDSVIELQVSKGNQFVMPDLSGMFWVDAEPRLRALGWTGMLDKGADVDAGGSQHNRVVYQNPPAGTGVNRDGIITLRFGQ
Sequence of UniProt P34947 (whole entry, looked up): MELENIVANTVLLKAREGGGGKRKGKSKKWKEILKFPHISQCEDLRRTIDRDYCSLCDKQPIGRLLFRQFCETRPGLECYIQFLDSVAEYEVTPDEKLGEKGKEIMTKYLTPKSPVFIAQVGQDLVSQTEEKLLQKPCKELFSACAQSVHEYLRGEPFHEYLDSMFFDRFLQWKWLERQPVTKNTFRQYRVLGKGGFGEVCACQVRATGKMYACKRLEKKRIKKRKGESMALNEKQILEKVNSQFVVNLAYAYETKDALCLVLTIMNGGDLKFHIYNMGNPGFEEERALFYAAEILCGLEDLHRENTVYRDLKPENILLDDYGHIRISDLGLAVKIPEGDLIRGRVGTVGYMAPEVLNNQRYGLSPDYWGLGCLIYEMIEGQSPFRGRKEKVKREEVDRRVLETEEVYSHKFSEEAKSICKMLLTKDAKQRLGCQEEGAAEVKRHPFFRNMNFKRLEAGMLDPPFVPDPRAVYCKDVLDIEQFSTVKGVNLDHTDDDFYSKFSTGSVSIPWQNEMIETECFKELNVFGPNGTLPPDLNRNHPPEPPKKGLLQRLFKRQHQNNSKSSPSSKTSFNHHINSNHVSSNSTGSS
Sequence of UniProt D3Z7P3 (whole entry, looked up): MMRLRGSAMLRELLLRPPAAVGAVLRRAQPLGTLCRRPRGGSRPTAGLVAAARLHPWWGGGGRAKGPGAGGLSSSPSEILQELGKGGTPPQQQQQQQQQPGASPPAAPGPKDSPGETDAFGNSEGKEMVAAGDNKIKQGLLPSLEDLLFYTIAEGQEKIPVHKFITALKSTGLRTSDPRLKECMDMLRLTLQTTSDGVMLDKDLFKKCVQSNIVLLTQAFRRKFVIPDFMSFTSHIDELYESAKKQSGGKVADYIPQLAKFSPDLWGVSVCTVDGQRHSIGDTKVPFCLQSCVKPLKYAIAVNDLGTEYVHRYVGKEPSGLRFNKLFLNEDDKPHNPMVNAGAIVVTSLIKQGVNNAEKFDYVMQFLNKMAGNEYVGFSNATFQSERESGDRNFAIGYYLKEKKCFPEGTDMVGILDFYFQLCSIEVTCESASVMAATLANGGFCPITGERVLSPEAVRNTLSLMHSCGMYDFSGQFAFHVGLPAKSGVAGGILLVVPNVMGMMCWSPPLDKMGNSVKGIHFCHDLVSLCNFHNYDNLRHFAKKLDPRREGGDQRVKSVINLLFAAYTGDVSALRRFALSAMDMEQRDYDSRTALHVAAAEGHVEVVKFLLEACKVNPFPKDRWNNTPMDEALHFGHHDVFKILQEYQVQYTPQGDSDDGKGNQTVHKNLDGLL
Sequence of UniProt Q9Y2U5 (whole entry, looked up): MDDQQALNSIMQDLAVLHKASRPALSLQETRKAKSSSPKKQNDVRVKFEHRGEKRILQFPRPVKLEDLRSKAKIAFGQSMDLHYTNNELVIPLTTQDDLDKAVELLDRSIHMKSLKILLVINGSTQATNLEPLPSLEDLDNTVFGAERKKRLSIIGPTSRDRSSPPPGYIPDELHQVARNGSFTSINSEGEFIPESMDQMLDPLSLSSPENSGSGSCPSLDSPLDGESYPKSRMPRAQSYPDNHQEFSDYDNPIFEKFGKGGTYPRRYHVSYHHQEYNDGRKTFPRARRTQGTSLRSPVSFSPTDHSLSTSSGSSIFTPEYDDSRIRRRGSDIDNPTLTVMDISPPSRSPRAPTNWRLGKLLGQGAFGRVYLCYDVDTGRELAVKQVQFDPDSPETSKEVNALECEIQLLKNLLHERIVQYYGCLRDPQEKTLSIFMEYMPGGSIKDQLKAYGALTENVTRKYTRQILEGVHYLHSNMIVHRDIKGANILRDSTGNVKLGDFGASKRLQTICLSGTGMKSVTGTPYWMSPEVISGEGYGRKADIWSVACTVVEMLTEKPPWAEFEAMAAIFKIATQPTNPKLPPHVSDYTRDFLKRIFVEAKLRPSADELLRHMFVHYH
Sequence of UniProt P08908 (whole entry, looked up): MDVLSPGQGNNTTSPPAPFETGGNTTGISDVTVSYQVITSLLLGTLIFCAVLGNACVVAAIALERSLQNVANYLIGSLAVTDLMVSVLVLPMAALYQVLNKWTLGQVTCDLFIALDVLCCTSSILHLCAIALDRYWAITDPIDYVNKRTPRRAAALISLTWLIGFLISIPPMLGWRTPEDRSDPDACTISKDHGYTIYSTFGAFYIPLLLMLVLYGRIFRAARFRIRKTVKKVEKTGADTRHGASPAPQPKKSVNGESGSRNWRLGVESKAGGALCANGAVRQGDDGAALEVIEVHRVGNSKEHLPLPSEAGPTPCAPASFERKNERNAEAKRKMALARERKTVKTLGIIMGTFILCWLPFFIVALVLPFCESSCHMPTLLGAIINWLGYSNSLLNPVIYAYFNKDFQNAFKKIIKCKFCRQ

Sample 1 — cell line: HEK-293T-ACE2-TMPRSS2; method: cell count; tested at: concentration not given
SMILES	viability [%]
CCOc1ccc(CCNc2ncnc3c2nc2n3CCCCC2)cc1OCC	73
Cc1ccc2[nH]cc(CN(C)CC3CCCCO3)c2c1 (stereo not shown)	66
Cc1oc2ncnc(N3CCCC(C(=O)NCCCc4ccccc4)C3)c2c1C (stereo not shown)	74
C#CCOc1ccc(C2C(C#N)=C(N)Oc3cc4c(cc32)OCO4)cc1Cl (stereo not shown)	75
Cc1ccc(NC2CCCN(C(=O)c3cc(=O)c4ccccc4o3)C2)cc1C (stereo not shown)	112
Cc1ccc(N2CCN(C(=O)CC3(CC4=Nc5ccccc5S(=O)(=O)N4)CCCC3)CC2)c(C)c1	66
CN(CC(=O)Nc1nc2ccc(Cl)cc2s1)S(=O)(=O)c1c[nH]c(C(=O)N2CCCCC2)c1	72
COc1ccc(C(=O)N2c3cc(CNC(=O)c4ccnn4C)ccc3CC2C)cc1 (stereo not shown)	68

Sample 2 — effect on: enzyme activity; action: inhibitor; tested at: 0.5 µM; baseline: control
SMILES: CCn1cnc2c(Nc3cccc(Cl)c3)nc(N[C@H]3CCCC[C@H]3N)nc21
target	remaining activity
PKN2 (Homo sapiens, UniProt Q16513)	90.3%
MAP3K2 (Homo sapiens, UniProt Q9Y2U5)	91.7%
GRK5 (Homo sapiens, UniProt P34947)	106%
BRSK1 (Homo sapiens, UniProt Q8TDC3)	92.4%
PTK2B (Homo sapiens, UniProt Q14289)	85.7%
SLK (Homo sapiens, UniProt Q9H2G2)	71.4%

Mixed results
Compound	target	assay	system	conditions	quantity	value
CNC(=N)NCCC[C@H](NC(=O)[C@H](CC(C)C)NC(=O)NNC(=O)[C@H](Cc1ccccc1)NC(=O)[C@H](CO)NC(=O)[C@H](CC(N)=O)NC(=O)[C@@H](Cc1cccnc1)NC(=O)[C@H](N)Cc1ccc(O)cc1)C(=O)NCC(N)=O	HTR1B (Homo sapiens, UniProt P28222)	ligand displacement, radioligand	–	10 µM	inhibition	31%
[N-]=[N+]=CC(=O)CC[C@H](N)C(=O)O	Glutaminase kidney isoform, mitochondrial (Mus musculus, UniProt D3Z7P3)	–	C57BL/6 CES1-/- mouse, EL4 tumour, tumour	subcutaneous, dose not given	enzyme activity	454 fmol/mg/h
CN(C)c1ncnc(-c2ccc3nc(Nc4cc(CN5CCN(C(=O)CC(F)(F)F)CC5)ccn4)[nH]c3c2)c1Cl	pknB (Mycobacterium tuberculosis, UniProt P9WI81)	cell-free assay, competition with immobilised ligand	–	1 µM	remaining binding	100%
CN(C)[C@@H]1CCN(c2cc(-c3ccccc3)nc3ccnn23)C1	HTR1A (Homo sapiens, UniProt P08908)	cell-free assay	–	10 µM	inhibition	64.8%
CC(C)(O)[C@H](F)CN1Cc2cc(NC(=O)c3cnn4cccnc34)c(N3CCOCC3)cc2C1=O	IRAK4 (Homo sapiens, UniProt Q9NWZ3)	target engagement, NanoBRET	live cells	–	EC50	3.05 nM and 3.56 nM
